Measurements pooled from the literature.
A part holds a random share of what one study measured. Several values in a cell are separate wells, animals, samples, runs or records.
Chain of UniProt Q04759 (whole entry, looked up): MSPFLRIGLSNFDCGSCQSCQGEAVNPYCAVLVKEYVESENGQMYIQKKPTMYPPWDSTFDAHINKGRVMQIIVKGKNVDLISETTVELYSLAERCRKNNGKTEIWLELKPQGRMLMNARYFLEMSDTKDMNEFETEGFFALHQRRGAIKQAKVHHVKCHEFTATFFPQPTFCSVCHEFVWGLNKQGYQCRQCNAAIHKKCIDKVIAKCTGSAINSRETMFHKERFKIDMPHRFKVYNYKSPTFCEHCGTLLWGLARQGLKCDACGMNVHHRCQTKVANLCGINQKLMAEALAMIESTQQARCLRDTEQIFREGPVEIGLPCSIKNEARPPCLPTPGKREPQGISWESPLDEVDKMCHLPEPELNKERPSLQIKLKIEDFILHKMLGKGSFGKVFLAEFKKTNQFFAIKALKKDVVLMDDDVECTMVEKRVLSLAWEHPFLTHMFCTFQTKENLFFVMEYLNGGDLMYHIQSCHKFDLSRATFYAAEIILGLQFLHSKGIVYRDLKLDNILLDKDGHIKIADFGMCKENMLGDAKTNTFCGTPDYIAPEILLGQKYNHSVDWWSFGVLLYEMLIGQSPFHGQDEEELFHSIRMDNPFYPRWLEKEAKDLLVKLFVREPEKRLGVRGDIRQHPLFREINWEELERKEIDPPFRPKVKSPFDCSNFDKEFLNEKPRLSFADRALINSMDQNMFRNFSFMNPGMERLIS
Chain of UniProt Q86UE8 (whole entry, looked up): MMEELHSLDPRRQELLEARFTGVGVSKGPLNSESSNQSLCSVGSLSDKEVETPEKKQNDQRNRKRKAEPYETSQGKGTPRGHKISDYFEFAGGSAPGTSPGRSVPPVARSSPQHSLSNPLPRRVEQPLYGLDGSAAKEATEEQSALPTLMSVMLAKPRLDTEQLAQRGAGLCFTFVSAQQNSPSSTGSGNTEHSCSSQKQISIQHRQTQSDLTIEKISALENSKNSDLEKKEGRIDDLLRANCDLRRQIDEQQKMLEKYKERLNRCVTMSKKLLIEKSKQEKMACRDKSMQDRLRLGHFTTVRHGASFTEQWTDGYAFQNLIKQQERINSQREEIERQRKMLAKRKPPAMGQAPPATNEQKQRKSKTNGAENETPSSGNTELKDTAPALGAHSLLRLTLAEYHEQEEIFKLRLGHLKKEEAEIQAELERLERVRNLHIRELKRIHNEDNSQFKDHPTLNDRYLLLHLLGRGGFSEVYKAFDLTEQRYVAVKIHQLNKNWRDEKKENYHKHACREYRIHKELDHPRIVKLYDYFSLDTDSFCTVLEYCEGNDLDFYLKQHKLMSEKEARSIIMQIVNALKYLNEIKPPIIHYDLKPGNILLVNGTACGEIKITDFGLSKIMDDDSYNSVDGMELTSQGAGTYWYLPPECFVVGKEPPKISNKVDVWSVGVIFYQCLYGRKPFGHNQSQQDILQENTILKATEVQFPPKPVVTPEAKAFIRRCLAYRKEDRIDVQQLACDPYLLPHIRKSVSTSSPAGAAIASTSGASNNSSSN
Chain of UniProt Q12852 (whole entry, looked up): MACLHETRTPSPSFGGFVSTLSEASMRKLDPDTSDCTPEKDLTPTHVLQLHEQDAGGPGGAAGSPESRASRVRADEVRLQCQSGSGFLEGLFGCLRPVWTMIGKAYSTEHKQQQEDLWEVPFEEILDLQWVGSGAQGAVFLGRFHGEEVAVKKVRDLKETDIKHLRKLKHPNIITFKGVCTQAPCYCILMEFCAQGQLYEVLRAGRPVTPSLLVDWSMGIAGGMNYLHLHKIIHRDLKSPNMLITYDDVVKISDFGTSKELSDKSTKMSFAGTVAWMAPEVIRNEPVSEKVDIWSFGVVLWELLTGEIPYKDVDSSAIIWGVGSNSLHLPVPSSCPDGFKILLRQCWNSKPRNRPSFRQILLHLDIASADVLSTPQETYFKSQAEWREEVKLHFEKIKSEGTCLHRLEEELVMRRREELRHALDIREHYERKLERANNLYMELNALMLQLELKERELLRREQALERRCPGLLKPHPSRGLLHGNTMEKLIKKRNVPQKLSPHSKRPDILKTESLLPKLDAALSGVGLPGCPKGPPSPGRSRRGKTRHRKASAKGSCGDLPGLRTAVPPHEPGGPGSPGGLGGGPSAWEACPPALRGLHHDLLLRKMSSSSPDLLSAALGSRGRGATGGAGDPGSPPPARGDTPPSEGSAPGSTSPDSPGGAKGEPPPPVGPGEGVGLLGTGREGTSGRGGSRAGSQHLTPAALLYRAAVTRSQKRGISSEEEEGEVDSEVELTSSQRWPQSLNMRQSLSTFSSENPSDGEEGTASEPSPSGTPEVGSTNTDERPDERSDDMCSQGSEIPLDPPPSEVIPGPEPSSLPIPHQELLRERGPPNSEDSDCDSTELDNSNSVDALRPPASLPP
Chain of UniProt Q5S007 (whole entry, looked up): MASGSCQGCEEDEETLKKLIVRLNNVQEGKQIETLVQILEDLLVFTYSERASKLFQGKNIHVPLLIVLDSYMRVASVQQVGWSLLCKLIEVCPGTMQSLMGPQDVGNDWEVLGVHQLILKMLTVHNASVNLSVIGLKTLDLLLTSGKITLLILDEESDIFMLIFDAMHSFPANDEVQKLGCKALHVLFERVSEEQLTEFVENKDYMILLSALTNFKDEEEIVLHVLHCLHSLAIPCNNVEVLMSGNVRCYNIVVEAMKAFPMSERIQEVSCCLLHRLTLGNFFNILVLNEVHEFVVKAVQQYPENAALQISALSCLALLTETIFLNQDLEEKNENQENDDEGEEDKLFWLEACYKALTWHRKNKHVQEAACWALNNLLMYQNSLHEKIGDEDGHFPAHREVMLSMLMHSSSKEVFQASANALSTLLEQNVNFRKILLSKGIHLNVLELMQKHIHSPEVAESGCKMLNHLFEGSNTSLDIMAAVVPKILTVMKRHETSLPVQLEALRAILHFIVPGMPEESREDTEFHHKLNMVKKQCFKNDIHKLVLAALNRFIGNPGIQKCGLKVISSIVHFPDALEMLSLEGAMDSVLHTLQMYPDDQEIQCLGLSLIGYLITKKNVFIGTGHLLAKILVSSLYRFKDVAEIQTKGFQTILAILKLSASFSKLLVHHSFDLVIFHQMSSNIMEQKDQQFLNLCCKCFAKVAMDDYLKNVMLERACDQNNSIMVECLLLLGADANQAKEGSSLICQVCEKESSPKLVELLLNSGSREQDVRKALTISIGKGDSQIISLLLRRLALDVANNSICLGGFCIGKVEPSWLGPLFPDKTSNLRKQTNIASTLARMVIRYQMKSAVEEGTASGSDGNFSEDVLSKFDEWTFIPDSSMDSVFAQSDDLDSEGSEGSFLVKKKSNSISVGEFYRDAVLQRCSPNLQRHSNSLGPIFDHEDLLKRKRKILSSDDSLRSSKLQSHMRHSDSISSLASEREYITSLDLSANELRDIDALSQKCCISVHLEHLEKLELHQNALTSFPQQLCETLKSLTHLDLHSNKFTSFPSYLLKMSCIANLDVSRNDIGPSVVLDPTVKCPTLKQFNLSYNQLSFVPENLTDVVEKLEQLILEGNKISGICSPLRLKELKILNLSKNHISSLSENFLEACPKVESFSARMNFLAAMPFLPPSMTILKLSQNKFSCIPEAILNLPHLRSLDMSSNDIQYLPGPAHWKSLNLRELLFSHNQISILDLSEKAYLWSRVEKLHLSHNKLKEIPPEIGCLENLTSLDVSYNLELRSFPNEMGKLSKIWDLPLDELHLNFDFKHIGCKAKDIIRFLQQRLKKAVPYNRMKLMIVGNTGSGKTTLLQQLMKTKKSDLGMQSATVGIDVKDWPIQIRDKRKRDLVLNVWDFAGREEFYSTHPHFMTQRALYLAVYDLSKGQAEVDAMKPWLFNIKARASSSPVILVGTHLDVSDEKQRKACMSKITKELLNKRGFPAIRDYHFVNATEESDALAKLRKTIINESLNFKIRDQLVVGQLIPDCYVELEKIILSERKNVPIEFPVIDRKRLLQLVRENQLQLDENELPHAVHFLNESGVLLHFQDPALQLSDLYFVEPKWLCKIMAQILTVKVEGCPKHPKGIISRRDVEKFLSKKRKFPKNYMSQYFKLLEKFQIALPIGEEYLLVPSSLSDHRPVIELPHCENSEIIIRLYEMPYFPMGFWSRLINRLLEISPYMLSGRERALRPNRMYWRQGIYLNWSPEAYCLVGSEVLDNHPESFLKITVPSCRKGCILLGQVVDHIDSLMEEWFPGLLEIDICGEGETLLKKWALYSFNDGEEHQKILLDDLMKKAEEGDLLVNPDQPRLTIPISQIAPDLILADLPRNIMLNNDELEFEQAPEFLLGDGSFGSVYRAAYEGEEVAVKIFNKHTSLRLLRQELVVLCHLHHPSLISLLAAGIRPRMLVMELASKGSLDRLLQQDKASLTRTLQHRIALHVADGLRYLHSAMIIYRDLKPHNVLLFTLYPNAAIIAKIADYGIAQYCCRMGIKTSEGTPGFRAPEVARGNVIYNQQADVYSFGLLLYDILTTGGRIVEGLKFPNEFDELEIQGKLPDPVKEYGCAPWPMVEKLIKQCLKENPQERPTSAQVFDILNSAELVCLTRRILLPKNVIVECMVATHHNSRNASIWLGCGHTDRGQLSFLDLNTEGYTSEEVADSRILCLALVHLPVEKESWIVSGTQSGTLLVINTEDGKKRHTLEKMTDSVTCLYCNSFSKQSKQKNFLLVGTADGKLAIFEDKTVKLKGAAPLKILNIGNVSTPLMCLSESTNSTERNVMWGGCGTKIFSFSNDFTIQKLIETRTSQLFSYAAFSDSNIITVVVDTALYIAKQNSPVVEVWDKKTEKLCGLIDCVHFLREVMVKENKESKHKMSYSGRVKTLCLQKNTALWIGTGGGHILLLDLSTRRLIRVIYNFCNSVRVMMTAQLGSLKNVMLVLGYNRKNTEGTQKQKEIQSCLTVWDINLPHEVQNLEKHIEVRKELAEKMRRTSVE

Series 1
Compound: COc1cc2c(cc1OC)-c1[nH]nc(Nc3cccc(F)c3)c1C2
Effect on: enzyme activity
Mode: inhibitor
Tested at: 0.5 µM
Reference: control
target	remaining activity [%]
Tyrosine-protein kinase JAK1 (JAK1, Homo sapiens, UniProt P23458)	97.6
Protein kinase C theta type (PRKCQ, Homo sapiens, UniProt Q04759)	108
Mitogen-activated protein kinase kinase kinase 20 (MAP3K20, Homo sapiens, UniProt Q9NYL2)	44.7
Serine/threonine-protein kinase PAK 6 (PAK6, Homo sapiens, UniProt Q9NQU5)	84.8
Tyrosine-protein kinase Tec (TEC, Homo sapiens, UniProt P42680)	95
Protein kinase C zeta type (PRKCZ, Homo sapiens, UniProt Q05513)	99.7
Calcium/calmodulin-dependent protein kinase type 1 (CAMK1, Homo sapiens, UniProt Q14012)	98.4
Calcium/calmodulin-dependent protein kinase kinase 1 (CAMKK1, Homo sapiens, UniProt Q8N5S9)	81.5
Casein kinase I isoform epsilon (CSNK1E, Homo sapiens, UniProt P49674)	94.3
Ephrin type-A receptor 6 (EPHA6, Homo sapiens, UniProt Q9UF33)	82.7
Dual specificity protein kinase CLK2 (CLK2, Homo sapiens, UniProt P49760)	84.3
Tyrosine-protein kinase receptor TYRO3 (TYRO3, Homo sapiens, UniProt Q06418)	97.2
SRSF protein kinase 1 (SRPK1, Homo sapiens, UniProt Q96SB4)	101
Dual specificity protein kinase CLK1 (CLK1, Homo sapiens, UniProt P49759)	102
Casein kinase I isoform delta (CSNK1D, Homo sapiens, UniProt P48730)	99.9
Serine/threonine-protein kinase SIK2 (SIK2, Homo sapiens, UniProt Q9H0K1)	38.6
Ribosomal protein S6 kinase alpha-3 (RPS6KA3, Homo sapiens, UniProt P51812)	94.7
Serine/threonine-protein kinase PAK 1 (PAK1, Homo sapiens, UniProt Q13153)	96.9
Vascular endothelial growth factor receptor 1 (FLT1, Homo sapiens, UniProt P17948)	82.6
Serine/threonine-protein kinase Sgk2 (SGK2, Homo sapiens, UniProt Q9HBY8)	98.6
Ephrin type-A receptor 2 (EPHA2, Homo sapiens, UniProt P29317)	93.8
Insulin-like growth factor 1 receptor (IGF1R, Homo sapiens, UniProt P08069)	93.9

Series 2
Cell line: A-375
Tested at: 100 µM
Time: 36 h
SMILES	viability
Nc1c2ccccc2nc2ccccc12	7.35%
CSc1nc2cc(Cl)c(Oc3cccc(Cl)c3Cl)cc2[nH]1	0.47%
COc1ccc(-c2cc(=S)ss2)cc1	87.5%
CC(=O)OCC(CCn1cnc2cnc(N)nc21)COC(C)=O	104%
Cc1ccc(/C(=C\CN2CCCC2)c2ccccn2)cc1	75.3%
CC1(C)[C@@H](O[C@H]2O[C@H](C(=O)O)[C@@H](O)[C@H](O)[C@H]2O[C@@H]2O[C@H](C(=O)O)[C@@H](O)[C@H](O)[C@H]2O)CC[C@]2(C)[C@H]3C(=O)C=C4[C@@H]5C[C@@](C)(C(=O)O)CC[C@]5(C)CC[C@@]4(C)[C@]3(C)CC[C@@H]12	112% and 118%
CC(C)N1CCN(c2ccc(OC[C@H]3CO[C@](Cn4cncn4)(c4ccc(Cl)cc4Cl)O3)cc2)CC1 (racemic)	0.122%
CNC(=O)c1cc(Oc2ccc(NC(=O)Nc3ccc(Cl)c(C(F)(F)F)c3)c(F)c2)ccn1	28.4%
Nc1c(CC(=O)O)cccc1C(=O)c1ccc(Br)cc1	56.6%
CCN(CCCCOC(=O)c1ccc(OC)c(OC)c1)C(C)Cc1ccc(OC)cc1 (stereo not drawn)	56.4%
c1cnc2cc3c(cc2n1)[C@@H]1CNC[C@H]3C1	90.7%

Series 3
Sample: hydrocarbon/water
Compound	logD
CCN1CC(=O)NC(CC(C)C)C(=O)N(C)C(C)C(=O)NC(CC(C)C)C(=O)N2CCCC2C(=O)N(CC2CCOCC2)CC(=O)NC(CC(C)C)C(=O)N(C)C(C)C(=O)NC(C)C(=O)N2CCCC2C1=O (stereo not drawn)	0.455
CCC[C@H]1NC(=O)CSC[C@@H](C(=O)OCC)N(C)C(=O)[C@H](CC(C)C)NC(=O)[C@H](C)N(C)C(=O)[C@H](CC(C)C)NC(=O)[C@H](C)N(C)C(=O)[C@@H]2CCCN2C(=O)[C@H](CC(C)C)NC(=O)CN(C)C1=O	-0.124
CC(C)C[C@@H]1NC(=O)CN(Cc2ccc3c(c2)OCO3)C(=O)[C@H](C)NC(=O)[C@H](CC(C)C)N(C)C(=O)[C@H]2CCCN2C(=O)[C@H](C)NC(=O)CN(CC2CCOCC2)C(=O)[C@H](C)NC(=O)[C@H](CC(C)C)N(C)C(=O)[C@H]2CCCN2C1=O	0.658
CCN1CC(=O)N[C@@H](CC(C)C)C(=O)N2CCC[C@@H]2C(=O)N(C)[C@@H](CC(C)C)C(=O)N[C@@H](C)C(=O)N(CC2CCCCC2)CC(=O)N[C@@H](Cc2ccccc2)C(=O)N2CCC[C@@H]2C(=O)N(C)[C@@H](CC(C)C)C(=O)N[C@@H](C)C1=O	2.84
CC(C)C[C@@H]1NC(=O)CN(CCCOC(C)C)C(=O)[C@H](C)NC(=O)[C@H](CC(C)C)N(C)C(=O)[C@H]2CCCN2C(=O)[C@H](Cc2ccccc2)NC(=O)CN(CC2CCOCC2)C(=O)[C@H](C)NC(=O)[C@H](CC(C)C)N(C)C(=O)[C@H]2CCCN2C1=O	1.92
CCCN1CC(=O)N[C@@H](CC(C)C)C(=O)N2CCC[C@@H]2C(=O)N(C)[C@@H](C)C(=O)N[C@@H](CC2CCCCC2)C(=O)N(C)[C@@H](C)C(=O)N[C@@H](CC(C)C)C(=O)N(C)[C@H](C(=O)OCC)CSCC(=O)N[C@@H](CC(C)C)C1=O	3.02
CCCN1CC(=O)N[C@@H](CC2CCCCC2)C(=O)N2CCC[C@@H]2C(=O)N(C)[C@@H](C)C(=O)N[C@@H](CC2CCCCC2)C(=O)N(C)[C@@H](C)C(=O)N[C@@H](CC(C)C)C(=O)N(C)Cc2cn(nn2)CC(=O)N[C@@H](C2CCCCC2)C1=O	2.43
CC(C)C[C@@H]1NC(=O)CN(CCCOC(C)C)C(=O)[C@H](C)NC(=O)[C@H](CC(C)C)N(C)C(=O)[C@H]2CCCN2C(=O)[C@H](C)NC(=O)CN(CC2CCCCC2)C(=O)[C@H](C)NC(=O)[C@H](CC(C)C)N(C)C(=O)[C@H]2CCCN2C1=O	2.34
CCCN1CC(=O)N[C@@H](CC2CCCCC2)C(=O)N(C)[C@@H](C)C(=O)N[C@@H](CC(C)C)C(=O)N(C)Cc2cn(nn2)CC(=O)N[C@@H](C2CCCCC2)C(=O)N(C)[C@@H](C)C(=O)N[C@@H](CC2CCCCC2)C(=O)N2CCC[C@@H]2C1=O	2.51

Series 4
SMILES: C[C@@]1(Cc2ccc(C#N)cc2)C(=O)N(c2cc(Cl)cc(Cl)c2)c2ncc(C(=O)NC3(c4nc(C5CCC5)no4)CC3)n21
Effect on: cell-free assay
Method: competition with immobilised ligand
Tested at: 1 µM
target	remaining binding [%]
Leucine-rich repeat serine/threonine-protein kinase 2 (LRRK2, Homo sapiens, UniProt Q5S007)	93
Serine/threonine-protein kinase BRSK2 (BRSK2, Homo sapiens, UniProt Q8IWQ3)	100
Cyclin-dependent kinase-like 2 (CDKL2, Homo sapiens, UniProt Q92772)	100
Mitogen-activated protein kinase kinase kinase 12 (MAP3K12, Homo sapiens, UniProt Q12852)	100
Insulin receptor (INSR, Homo sapiens, UniProt P06213)	89
Serine/threonine-protein kinase Nek2 (NEK2, Homo sapiens, UniProt P51955)	83
Serine/threonine-protein kinase 32B (STK32B, Homo sapiens, UniProt Q9NY57)	100
Atypical kinase COQ8A, mitochondrial (COQ8A, Homo sapiens, UniProt Q8NI60)	90
NUAK family SNF1-like kinase 1 (NUAK1, Homo sapiens, UniProt O60285)	100
Serine/threonine-protein kinase ULK1 (ULK1, Homo sapiens, UniProt O75385)	100
Myosin light chain kinase (MYLK3, Homo sapiens, UniProt Q32MK0)	87
Mast/stem cell growth factor receptor Kit, autoinhibited (KIT, Homo sapiens, UniProt P10721)	100
Mitogen-activated protein kinase 1 (MAPK1, Homo sapiens, UniProt P28482)	100
Eukaryotic translation initiation factor 2-alpha kinase 1 (EIF2AK1, Homo sapiens, UniProt Q9BQI3)	100
Phosphatidylinositol 4,5-bisphosphate 3-kinase catalytic subunit alpha isoform (PIK3CA, Homo sapiens, UniProt P42336, I800L)	88
Phosphatidylinositol 3-kinase C2 domain-containing subunit gamma (PIK3C2G, Homo sapiens, UniProt O75747)	100
Receptor-type tyrosine-protein kinase FLT3 (FLT3, Homo sapiens, UniProt P36888, F691L/ITD)	100
Serine/threonine-protein kinase tousled-like 2 (TLK2, Homo sapiens, UniProt Q86UE8)	97
5'-AMP-activated protein kinase catalytic subunit alpha-1 (PRKAA1, Homo sapiens, UniProt Q13131)	100
Serine/threonine-protein kinase DCLK1 (DCLK1, Homo sapiens, UniProt O15075)	100
Protein kinase C theta type (PRKCQ, Homo sapiens, UniProt Q04759)	98

Excerpt of the above (series 4):
target	remaining binding [%]
Serine/threonine-protein kinase 32B (STK32B, Homo sapiens, UniProt Q9NY57)	100
5'-AMP-activated protein kinase catalytic subunit alpha-1 (PRKAA1, Homo sapiens, UniProt Q13131)	100
Mast/stem cell growth factor receptor Kit, autoinhibited (KIT, Homo sapiens, UniProt P10721)	100
Serine/threonine-protein kinase tousled-like 2 (TLK2, Homo sapiens, UniProt Q86UE8)	97
Atypical kinase COQ8A, mitochondrial (COQ8A, Homo sapiens, UniProt Q8NI60)	90
